Assay results pooled from the literature.
Parts stem from different laboratories: compare values within a part only. “And” joins repeats or separate records; there may be more than shown.
UniProt Q9UJQ4, sequence (whole entry, looked up): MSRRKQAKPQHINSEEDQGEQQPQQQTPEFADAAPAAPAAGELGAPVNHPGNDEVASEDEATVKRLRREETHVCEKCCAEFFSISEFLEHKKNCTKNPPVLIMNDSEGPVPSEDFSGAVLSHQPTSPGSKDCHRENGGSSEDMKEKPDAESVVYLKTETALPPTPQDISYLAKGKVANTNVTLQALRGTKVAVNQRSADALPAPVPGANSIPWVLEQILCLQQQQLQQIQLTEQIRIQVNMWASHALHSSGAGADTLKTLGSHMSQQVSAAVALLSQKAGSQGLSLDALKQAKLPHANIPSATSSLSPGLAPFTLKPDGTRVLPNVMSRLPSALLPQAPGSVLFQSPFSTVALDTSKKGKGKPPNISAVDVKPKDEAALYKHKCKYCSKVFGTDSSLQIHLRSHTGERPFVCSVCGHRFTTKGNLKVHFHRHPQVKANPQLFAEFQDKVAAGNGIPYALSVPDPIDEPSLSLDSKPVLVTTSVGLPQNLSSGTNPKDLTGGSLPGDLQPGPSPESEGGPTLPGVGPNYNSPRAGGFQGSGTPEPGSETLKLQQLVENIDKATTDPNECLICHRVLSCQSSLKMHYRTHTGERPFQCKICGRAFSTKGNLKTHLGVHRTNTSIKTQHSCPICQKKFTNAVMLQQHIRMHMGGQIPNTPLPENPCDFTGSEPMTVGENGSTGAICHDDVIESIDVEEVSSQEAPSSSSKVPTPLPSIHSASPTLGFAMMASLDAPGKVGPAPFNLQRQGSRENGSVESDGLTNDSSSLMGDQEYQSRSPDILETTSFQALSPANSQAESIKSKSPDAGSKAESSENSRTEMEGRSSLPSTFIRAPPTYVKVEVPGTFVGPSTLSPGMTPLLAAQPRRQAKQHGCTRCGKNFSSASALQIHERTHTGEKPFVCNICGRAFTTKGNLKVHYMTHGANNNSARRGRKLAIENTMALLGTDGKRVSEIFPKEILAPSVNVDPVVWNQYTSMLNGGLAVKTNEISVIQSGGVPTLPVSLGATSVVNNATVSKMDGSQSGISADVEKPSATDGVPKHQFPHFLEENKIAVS
UniProt Q13422, sequence (whole entry, looked up): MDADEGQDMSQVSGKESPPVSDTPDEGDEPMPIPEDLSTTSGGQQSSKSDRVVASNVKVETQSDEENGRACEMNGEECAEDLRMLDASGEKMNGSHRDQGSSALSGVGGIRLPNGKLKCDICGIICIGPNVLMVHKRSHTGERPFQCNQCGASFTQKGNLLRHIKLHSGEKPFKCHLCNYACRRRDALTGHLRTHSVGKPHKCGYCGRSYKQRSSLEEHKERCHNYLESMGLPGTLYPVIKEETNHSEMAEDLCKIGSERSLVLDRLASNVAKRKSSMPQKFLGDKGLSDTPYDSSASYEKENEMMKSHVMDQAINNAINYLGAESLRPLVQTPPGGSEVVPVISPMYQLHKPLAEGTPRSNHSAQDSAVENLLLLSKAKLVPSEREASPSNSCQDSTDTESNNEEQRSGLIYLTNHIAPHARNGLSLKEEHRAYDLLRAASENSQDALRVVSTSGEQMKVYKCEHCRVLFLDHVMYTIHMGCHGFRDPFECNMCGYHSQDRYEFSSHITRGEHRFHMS
UniProt P45983, sequence (whole entry, looked up): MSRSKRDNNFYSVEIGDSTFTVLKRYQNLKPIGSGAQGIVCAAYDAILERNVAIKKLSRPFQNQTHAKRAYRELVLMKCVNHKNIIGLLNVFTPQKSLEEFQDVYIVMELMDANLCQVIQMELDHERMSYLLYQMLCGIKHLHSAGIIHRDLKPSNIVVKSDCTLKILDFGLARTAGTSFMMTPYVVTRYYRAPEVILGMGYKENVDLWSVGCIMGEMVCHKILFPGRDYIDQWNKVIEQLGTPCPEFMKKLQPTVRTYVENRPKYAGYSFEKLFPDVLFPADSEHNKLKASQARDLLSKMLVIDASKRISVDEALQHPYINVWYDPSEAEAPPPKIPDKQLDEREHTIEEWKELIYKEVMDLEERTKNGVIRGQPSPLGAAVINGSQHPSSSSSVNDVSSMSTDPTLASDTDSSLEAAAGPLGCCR
UniProt Q9BX84, sequence (whole entry, looked up): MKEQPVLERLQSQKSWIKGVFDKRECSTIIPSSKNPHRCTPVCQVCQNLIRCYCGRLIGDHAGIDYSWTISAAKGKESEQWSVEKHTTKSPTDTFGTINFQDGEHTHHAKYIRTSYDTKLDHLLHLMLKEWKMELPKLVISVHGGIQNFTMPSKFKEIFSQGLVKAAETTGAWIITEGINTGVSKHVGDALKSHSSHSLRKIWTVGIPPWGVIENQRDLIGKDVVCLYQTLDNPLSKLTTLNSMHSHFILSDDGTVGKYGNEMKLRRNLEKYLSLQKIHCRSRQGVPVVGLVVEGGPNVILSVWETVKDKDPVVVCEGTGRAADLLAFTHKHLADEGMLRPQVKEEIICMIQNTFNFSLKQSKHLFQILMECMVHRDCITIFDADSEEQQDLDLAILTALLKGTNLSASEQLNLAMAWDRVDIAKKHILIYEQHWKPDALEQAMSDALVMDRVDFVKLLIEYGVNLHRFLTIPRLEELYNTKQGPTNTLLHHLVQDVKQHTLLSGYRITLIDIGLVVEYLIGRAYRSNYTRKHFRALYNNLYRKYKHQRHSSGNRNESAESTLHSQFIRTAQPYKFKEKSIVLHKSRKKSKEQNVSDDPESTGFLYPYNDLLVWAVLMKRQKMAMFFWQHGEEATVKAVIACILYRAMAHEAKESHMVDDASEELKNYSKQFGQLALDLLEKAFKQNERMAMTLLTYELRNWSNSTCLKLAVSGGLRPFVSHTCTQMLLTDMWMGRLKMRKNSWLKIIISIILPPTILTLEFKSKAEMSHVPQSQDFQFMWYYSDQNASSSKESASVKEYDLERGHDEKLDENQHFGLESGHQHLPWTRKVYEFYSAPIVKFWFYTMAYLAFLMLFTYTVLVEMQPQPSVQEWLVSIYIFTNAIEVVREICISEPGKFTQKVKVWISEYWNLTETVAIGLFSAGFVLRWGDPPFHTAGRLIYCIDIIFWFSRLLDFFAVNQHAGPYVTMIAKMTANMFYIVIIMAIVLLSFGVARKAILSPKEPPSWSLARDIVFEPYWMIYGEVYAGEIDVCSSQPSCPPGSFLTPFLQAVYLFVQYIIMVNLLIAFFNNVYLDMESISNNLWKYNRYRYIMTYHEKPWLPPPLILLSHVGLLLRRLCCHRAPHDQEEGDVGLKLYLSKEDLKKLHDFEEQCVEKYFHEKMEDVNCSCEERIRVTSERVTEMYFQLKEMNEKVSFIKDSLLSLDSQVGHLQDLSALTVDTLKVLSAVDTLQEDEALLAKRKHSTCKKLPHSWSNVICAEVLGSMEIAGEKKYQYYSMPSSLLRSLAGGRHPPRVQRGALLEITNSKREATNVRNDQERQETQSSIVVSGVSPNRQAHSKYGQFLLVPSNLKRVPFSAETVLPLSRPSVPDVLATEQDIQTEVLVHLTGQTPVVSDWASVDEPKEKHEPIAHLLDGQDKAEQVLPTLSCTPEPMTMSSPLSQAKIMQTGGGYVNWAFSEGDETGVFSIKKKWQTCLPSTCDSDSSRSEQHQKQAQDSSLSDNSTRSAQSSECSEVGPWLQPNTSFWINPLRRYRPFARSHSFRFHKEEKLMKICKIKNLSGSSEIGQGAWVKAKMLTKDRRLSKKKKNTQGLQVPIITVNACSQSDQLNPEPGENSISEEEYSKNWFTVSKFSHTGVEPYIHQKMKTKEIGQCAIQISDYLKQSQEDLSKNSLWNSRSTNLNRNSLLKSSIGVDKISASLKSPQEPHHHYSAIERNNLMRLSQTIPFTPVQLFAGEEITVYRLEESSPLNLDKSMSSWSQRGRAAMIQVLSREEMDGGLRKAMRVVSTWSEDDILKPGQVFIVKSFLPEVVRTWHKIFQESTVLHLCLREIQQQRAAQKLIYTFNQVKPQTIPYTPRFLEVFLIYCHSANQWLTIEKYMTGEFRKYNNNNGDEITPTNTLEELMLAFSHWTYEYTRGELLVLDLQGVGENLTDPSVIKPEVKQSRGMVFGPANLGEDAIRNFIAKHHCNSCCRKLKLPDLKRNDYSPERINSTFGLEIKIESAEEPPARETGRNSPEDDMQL
UniProt Q9UEE5, sequence (whole entry, looked up): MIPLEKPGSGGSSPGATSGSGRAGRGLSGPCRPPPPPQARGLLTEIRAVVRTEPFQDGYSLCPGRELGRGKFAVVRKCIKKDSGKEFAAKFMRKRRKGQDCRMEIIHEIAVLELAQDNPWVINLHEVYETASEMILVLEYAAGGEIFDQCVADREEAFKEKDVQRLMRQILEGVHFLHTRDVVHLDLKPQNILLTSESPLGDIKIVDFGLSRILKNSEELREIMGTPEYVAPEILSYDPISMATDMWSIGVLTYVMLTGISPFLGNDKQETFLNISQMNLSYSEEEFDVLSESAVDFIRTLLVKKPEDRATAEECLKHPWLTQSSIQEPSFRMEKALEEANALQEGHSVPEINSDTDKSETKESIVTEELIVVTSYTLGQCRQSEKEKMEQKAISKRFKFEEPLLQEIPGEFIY

Block 1
Target: Diamine acetyltransferase 1 (Homo sapiens, UniProt P21673)
Mode: inhibitor
Concentration: 10 µM
Reference: control
Endpoint: remaining activity
Target sequence (P21673 1-171): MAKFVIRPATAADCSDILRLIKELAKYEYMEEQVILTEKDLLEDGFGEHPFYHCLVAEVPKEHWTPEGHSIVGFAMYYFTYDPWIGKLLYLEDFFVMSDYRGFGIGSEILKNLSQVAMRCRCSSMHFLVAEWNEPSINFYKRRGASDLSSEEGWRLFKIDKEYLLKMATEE
COc1ccc(-c2cc(=O)c3c(OC)c(OC)c(OC)c(OC)c3o2)cc1O: 77.4%
COc1cc(CC(=O)O)ccc1O: 105%
COc1cc2c3c(cc4ccccc4c3c1OC)N(C)CC2: 81.6%
O=c1c(-c2ccc(O)cc2)coc2cc(O)ccc12: 107%
OCCc1ccc(O)c(O)c1: 84.1%
O=C(O)/C=C/c1ccccc1: 84.2%
COc1c2ccoc2c(OC)c2oc(=O)ccc12: 94.2%
CC/C=C\C/C=C\C/C=C\CCCCCCCC(=O)OC: 112%
COc1cc2oc(=O)ccc2cc1CC=C(C)C: 82%

Block 2
SMILES: O=C1CCC(N2Cc3cc(C4CCN(Cc5ccccc5)CC4)ccc3C2=O)C(=O)N1 (stereo not shown)
Mode: degrader
Method: HiBiT
Cell line: HEK293
Endpoint: remaining protein
GSPT1: Eukaryotic peptide chain release factor GTP-binding subunit ERF3A (GSPT1, Homo sapiens, UniProt P15170)
UniProt P15170, sequence (whole entry, looked up): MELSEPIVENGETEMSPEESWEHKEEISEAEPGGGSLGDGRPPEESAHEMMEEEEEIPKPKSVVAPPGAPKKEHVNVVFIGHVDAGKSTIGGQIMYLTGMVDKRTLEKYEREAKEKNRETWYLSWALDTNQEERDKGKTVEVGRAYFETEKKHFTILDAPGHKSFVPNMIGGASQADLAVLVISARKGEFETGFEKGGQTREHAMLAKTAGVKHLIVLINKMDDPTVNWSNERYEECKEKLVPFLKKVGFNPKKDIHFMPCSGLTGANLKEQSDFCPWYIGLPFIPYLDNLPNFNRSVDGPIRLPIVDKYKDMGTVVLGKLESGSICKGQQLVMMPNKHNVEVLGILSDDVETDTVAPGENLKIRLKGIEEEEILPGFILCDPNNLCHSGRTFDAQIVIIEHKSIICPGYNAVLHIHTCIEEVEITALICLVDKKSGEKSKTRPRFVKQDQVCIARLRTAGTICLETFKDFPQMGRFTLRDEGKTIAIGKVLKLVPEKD
GSPT1; 0.01372 µM, 6 h: 111%
Zinc finger protein Eos (IKZF4, Homo sapiens, UniProt Q9H2S9); 0.01235 µM, 3 h: 124%
Sal-like protein 4 (SALL4, Homo sapiens, UniProt Q9UJQ4); 0.0001694 µM: 87.2% and 87.4%
GSPT1; 0.1235 µM: 109% and 100%
DNA-binding protein Ikaros (Homo sapiens, UniProt Q13422); 0.001524 µM: 99.4% and 90.1%
Casein kinase I isoform alpha (CSNK1A1, Homo sapiens, UniProt P48729); 0.04115 µM, 6 h: 91.6%
Zinc finger protein Aiolos (Homo sapiens, UniProt Q9UKT9); 0.01372 µM, 6 h: 85.5%

Block 3
Cell line: mouse MPNST tumor cells
Method: high-content immunofluorescence imaging
Item: nuclear SOX9
Concentration: 10 µM
Time: 12 h
Setting: mean of 2 replicates
Reference: DMSO control
Reading: higher = more nuclear SOX9
Endpoint: nuclear SOX9 intensity
CC(=O)NCCSc1nc2cscc2c(=O)n1-c1ccc(OCC(F)(F)F)cc1: 97 % of DMSO
NCCCC(O)(P(=O)(O)O)P(=O)(O)O: 97.3 % of DMSO
Oc1cc2c(c(Cl)c1O)CCNCC2c1ccccc1 (stereo not shown): 99.2 % of DMSO
Nc1ccc(C(=O)NCC(=O)O)cc1: 106 % of DMSO
O=C1[C@H](CC[C@H](O)c2ccc(F)cc2)[C@@H](c2ccc(O)cc2)N1c1ccc(F)cc1: 105 % of DMSO and 108 % of DMSO
COc1cc(C(=O)NC2CC3CCCC(C2)N3CC(=O)Nc2ccccc2Cl)cc(OC)c1OC (stereo not shown): 155 % of DMSO
CS(=O)(=O)CCNCc1nc(-c2ccc3ncnc(Nc4ccc(OCc5cccc(F)c5)c(Cl)c4)c3c2)cs1: 105 % of DMSO
COc1cc(N2CCN(C(C)=O)CC2)ccc1Nc1ncc(Cl)c(Nc2ccc(N3CCN(C(C)=O)CC3)cc2OC)n1: 122 % of DMSO
Nc1ncc(Cc2ccc(Br)cc2)s1: 90.5 % of DMSO
COc1ccccc1CN[C@H]1CCCN[C@H]1c1ccccc1: 115 % of DMSO
Cc1ccsc1/C=C/C1=NCCCN1C: 97.1 % of DMSO

Block 4
Structure (SMILES): Cn1nc(C(F)(F)F)cc1-c1cnc(N2CCc3cc(S(=O)(=O)Nc4c(F)cc(Cl)cc4F)cc(N4CCCC4=O)c32)nc1
Method: competition with immobilised ligand
Concentration: 1 µM
Endpoint: remaining binding
Phosphatidylinositol 4,5-bisphosphate 3-kinase catalytic subunit alpha isoform (PIK3CA, Homo sapiens, UniProt P42336, M1043I); cell-free assay: 89%
Phosphatidylinositol 3-kinase C2 domain-containing subunit gamma (PIK3C2G, Homo sapiens, UniProt O75747); cell-free assay: 94%
Mitogen-activated protein kinase 8 (MAPK8, Homo sapiens, UniProt P45983); cell-free assay: 100%
Serine/threonine-protein kinase RIO1 (RIOK1, Homo sapiens, UniProt Q9BRS2); cell-free assay: 96%
Cyclin-dependent kinase-like 5 (CDKL5, Homo sapiens, UniProt O76039); binding: 91%
Serine/threonine-protein kinase 32B (STK32B, Homo sapiens, UniProt Q9NY57); cell-free assay: 95%
Serine/threonine-protein kinase ULK2 (ULK2, Homo sapiens, UniProt Q8IYT8); cell-free assay: 74%
Homeodomain-interacting protein kinase 4 (HIPK4, Homo sapiens, UniProt Q8NE63); cell-free assay: 100%
Phosphatidylinositol 4-phosphate 5-kinase type-1 gamma (PIP5K1C, Homo sapiens, UniProt O60331); cell-free assay: 93%
Serine/threonine-protein kinase DCLK1 (DCLK1, Homo sapiens, UniProt O15075); cell-free assay: 93%
Eukaryotic translation initiation factor 2-alpha kinase 1 (EIF2AK1, Homo sapiens, UniProt Q9BQI3); cell-free assay: 100%
Inhibitor of nuclear factor kappa-B kinase subunit beta (IKBKB, Homo sapiens, UniProt O14920); cell-free assay: 81%
Phosphatidylinositol 5-phosphate 4-kinase type-2 gamma (PIP4K2C, Homo sapiens, UniProt Q8TBX8); cell-free assay: 66%
Tyrosine-protein kinase ZAP-70 (ZAP70, Homo sapiens, UniProt P43403); cell-free assay: 93%
Serine/threonine-protein kinase Chk2 (CHEK2, Homo sapiens, UniProt O96017); cell-free assay: 100%
Casein kinase I isoform gamma-3 (CSNK1G3, Homo sapiens, UniProt Q9Y6M4); cell-free assay: 81%
Protein kinase C iota type (PRKCI, Homo sapiens, UniProt P41743); cell-free assay: 94%
Mast/stem cell growth factor receptor Kit, autoinhibited (KIT, Homo sapiens, UniProt P10721); cell-free assay: 91%
Serine/threonine-protein kinase 17A (STK17A, Homo sapiens, UniProt Q9UEE5); cell-free assay: 83%
Transient receptor potential cation channel subfamily M member 6 (TRPM6, Homo sapiens, UniProt Q9BX84); cell-free assay: 79%
Leucine-rich repeat serine/threonine-protein kinase 2 (LRRK2, Homo sapiens, UniProt Q5S007); cell-free assay: 79%
NT-3 growth factor receptor (NTRK3, Homo sapiens, UniProt Q16288); cell-free assay: 98%

Repeated from above (block 3):
Oc1cc2c(c(Cl)c1O)CCNCC2c1ccccc1 (stereo not shown): 99.2 % of DMSO
COc1cc(N2CCN(C(C)=O)CC2)ccc1Nc1ncc(Cl)c(Nc2ccc(N3CCN(C(C)=O)CC3)cc2OC)n1: 122 % of DMSO
CS(=O)(=O)CCNCc1nc(-c2ccc3ncnc(Nc4ccc(OCc5cccc(F)c5)c(Cl)c4)c3c2)cs1: 105 % of DMSO
Nc1ccc(C(=O)NCC(=O)O)cc1: 106 % of DMSO
COc1cc(C(=O)NC2CC3CCCC(C2)N3CC(=O)Nc2ccccc2Cl)cc(OC)c1OC (stereo not shown): 155 % of DMSO
Nc1ncc(Cc2ccc(Br)cc2)s1: 90.5 % of DMSO
